Measurements of several laboratories.
Each line is one published result; not all experiments were run side by side. ± marks the error that the study gave.

SMILES	cell line	assay	conditions	scale	IC50
O=C1NC(=O)[C@@H](c2cn3c4c(cccc24)CCC3)[C@@H]1c1c[nH]c2ccccc12	MDA-MB-435, c-MET negative	cell proliferation, MTT	72 h, not reached at top dose		> 10 µM
O=C1c2ccccc2-c2nc3nnnn3nc21	HeLa expressing Ub(G76V)-GFP	Ub(G76V)-GFP degradation, inhibitor, cycloheximide chase			0.52 ± 0.12 µM
C[C@]1([N+](=O)[O-])C(=O)c2ccccc2O[C@@H]1CC(=O)NCC1CCCCC1	DU-145	cell growth or viability, SRB	96 h		4.22 µM
Cc1ccc(C(C)C)cc1.O=C(C=C([O-])C(F)(F)F)[c-]1cccc1.[Cl-].[Fe+2].[Ru+2].c1cc[cH-]c1	HeLa, A2780 and A2780cis	cell viability, MTT	72 h, range over all cell lines		1.3 to 3.1 µM
C[C@]1([N+](=O)[O-])C(=O)c2ccccc2O[C@@H]1CC(=O)NC1CCCCC1	DU-145	cell growth or viability, SRB	96 h		5.09 µM
C=CCOc1c(N)cc2c(C)cc(=O)oc2c1C	PAM212	cell growth	4 to 5 days, together with: UVA 1.28 J/cm^2		5 µM
C=CC(=O)N1CCC[C@@H](n2nc(-c3ccc(Oc4ccccc4)cc3)c3c(N)ncnc32)C1	TMD8	IL-6 secretion	16 h		0.0004 µM
COc1ccc(CNC(=O)[C@@H]2CN(C(=O)CCl)CCN2S(=O)(=O)c2ccc(OC)cc2)cc1	22Rv1	mRNA level, QuantiGene, refers to: AR-V7 mRNA	6 h		> 50 µM
CC(C)c1cc(C(=O)N2Cc3ccc(CN4CCN(C)CC4)cc3C2)c(O)cc1O	human astrocytes	C3 secretion, ELISA	together with: stimulated PBMC supernatant		0.121 µM
O=C1Nc2ccccc2C1=Cc1cc2ccccc2nc1Cl	A2780	cell growth or viability, MTT	72 h		> 100 µM
COc1ccc(N2CCN(CC(=O)Nc3ccc(C4=NN(C(C)=O)C(c5ccc(C)cc5)C4)cc3)CC2)cc1 (centres unmarked)	HCT-116, PC-3, MCF7, MDA-MB-231 average	MTT			18 µM
Nc1ccn([C@@H]2O[C@H](CO)[C@@H](O)[C@H](F)[C@H]2O)c(=O)n1	FM3A	cell growth or viability			> 200 µM
O=S1(=O)N=C(NCCc2ccc(F)cc2)Nc2ccc(Br)cc21	MDA-MB-468	cell growth or viability, MTS	72 h		20.1 µM
CNC(C)(C)C(=O)O	rat hippocampal neurons	calcium-dependent uptake	together with: 5.4 µM 14C-labelled same compound		50 ± 6 µM
CC(C)=CCc1cc2c(C)cc(=O)oc2c(C)c1O	PAM212	cell growth	4 to 5 days, together with: UVA 1.28 J/cm^2		1 µM
Nc1nc2[nH]c(CCCc3ccc(C(=O)NCCCC(=O)O)s3)cc2c(=O)[nH]1	KB cells	cell growth	together with: folic acid 200 nM		> 1 µM
N=C(N)NCCC[C@H](NC(=O)[C@H](CCCNC(=N)N)NC(=O)[C@H](Cc1c[nH]c2ccccc12)NC(=O)[C@H](CCC(N)=O)NC(=O)[C@H](Cc1c[nH]c2ccccc12)NC(=O)[C@H](CCCNC(=N)N)NC(=O)[C@H](Cc1c[nH]c2ccccc12)NC(=O)[C@H](CCC(N)=O)NC(=O)[C@H](Cc1c[nH]c2ccccc12)NC(=O)[C@@H](N)CCCNC(=N)N)C(N)=O	primary fibroblasts	cell viability, MTT	2 h		> 122 µM
Oc1ccc(/C=C/c2cc(O)cc(O)c2)cc1	MDA-MB-468	cell growth or viability, MTT	96 h		59 µM
Cc1ccc(NC2=CC(=O)c3sc(C)nc3C2=O)cc1	HeLa expressing Ub(G76V)-GFP	Ub(G76V)-GFP degradation, inhibitor, cycloheximide chase			2.8 ± 0.9 µM
C#CCNC(=O)C[C@H]1Oc2ccccc2C(=O)[C@]1(C)[N+](=O)[O-]	DU-145	cell growth or viability, SRB	96 h		38.2 µM
COc1ccc2cc(C(=O)Nc3ccc4c(c3)CN(C3CCC(=O)NC3=O)C4=O)ccc2c1 (centres unmarked)	AML PDX cells	viability	2 days		0.0028 µM
C[C@]1([N+](=O)[O-])C(=O)c2ccccc2O[C@@H]1CC(=O)Nc1ncccn1	DU-145	cell growth or viability, SRB	96 h		> 50 µM
COc1cc(C=CC(=O)c2ccc(NC(=O)CN3CCN(c4ccc(Cl)cc4)CC3)cc2)cc(OC)c1OC	HCT-116, PC-3, MCF7, MDA-MB-231 average	MTT			29 µM
CC(NC1=NS(=O)(=O)c2ccccc2N1)c1ccccc1 (centres unmarked)	MDA-MB-468	cell growth or viability, MTS	72 h		12.4 µM
O=c1[nH]cc(F)c(=O)[nH]1	ReNcell VM, differentiated astrocytic	cell viability, live/dead 3D alginate microarray	24 h exposure plus 48 h, 6 days differentiation		5.2 µM
O=S1(=O)N=C(NCc2ccc(SC(F)(F)F)cc2)Nc2ccc(F)cc21	MDA-MB-468	cell growth or viability, MTS	72 h		48.7 µM
Cc1c(I)c(=O)oc2c(C)c(O)ccc12	PAM212	cell growth	4 to 5 days, together with: UVA 1.28 J/cm^2		61 µM

SMILES	cell line	assay	conditions	scale	IC50
CNC(=O)c1cc(Oc2ccc(NC(=O)Nc3ccc(Cl)c(C(F)(F)F)c3)cc2)ccn1	MHCC97H	cell proliferation, MTT	48 h, miR-140-3p plus inhibitor		1.01 ± 0.29 µM
COc1ccc(C2CC(c3ccc(NC(=O)CN4CCN(c5ccc(OC)cc5)CC4)cc3)=NN2C(C)=O)cc1 (centres unmarked)	HCT-116, PC-3, MCF7, MDA-MB-231 average	MTT			13 µM
Cc1cc(=O)oc2c(C)c(O)ccc12	PAM212	cell growth	4 to 5 days, together with: UVA 1.28 J/cm^2		100 µM
O=C(Nc1nccs1)C(c1cc(F)ccc1O)N1Cc2ccccc2C1=O (centres unmarked)	BaF3	cell growth or viability, MTS			~10 µM
COc1cc(/C=C/C(O)=C/C(=O)/C=C/c2ccc(OC(=O)CCC(=O)OCc3ccccc3)c(OC)c2)ccc1O	mouse Peritoneal macrophage	IL-6 release, inhibitor, ELISA	LPS-stimulated		8.28 µM
COc1ccc(C[C@H](N)C(=O)N[C@H]2[C@@H](O)[C@H](n3cnc4c(N(C)C)ncnc43)O[C@@H]2CO)cc1	3T3 cells	cytotoxicity	DMSO sample retest		3.39 ± 0.28 µM
O=C1CN(/N=C/c2ccc(-c3ccc([N+](=O)[O-])cc3)o2)C(O)=N1	human astrocytes	C3 secretion, ELISA	together with: stimulated PBMC supernatant		0.227 µM
N=C(N)c1ccc(C(=O)N2CCN(C(=O)c3cc(CN4CCN(C(=N)N)CC4)cc([N+](=O)[O-])c3)CC2)cc1	mouse F9 cells	CHRM4 and SCN3A gene activation, activator, qRT-PCR, refers to: CHRM4 and SCN3A mRNA	24 h		8.45 µM
O=S1(=O)N=C(NCCc2cccc(C(F)(F)F)c2)Nc2ccc(F)cc21	MDA-MB-468	cell growth or viability, MTS	72 h		25.2 µM
C[C@@H]1C[C@H]2[C@@H]3CCC4=CC(=O)C=C[C@]4(C)[C@@]3(F)[C@@H](O)C[C@]2(C)[C@@]1(O)C(=O)CO	EAE mouse splenocytes at disease peak	cellular metabolism	120 h	relative to: untreated EAE splenocytes	0.00684 ± 0.00418 µM
Nc1ccn([C@@H]2O[C@H](CO)[C@@H](O)C2(F)F)c(=O)n1	AsPC-1 with ENG siRNA		48 h, together with: ENG siRNA 2 for 24 h		0.0245 µM
CNC(=O)c1cc(Oc2ccc(NC(=O)Nc3ccc(Cl)c(C(F)(F)F)c3)cc2)ccn1	MHCC97H control	cell viability, MTT			1.15 µM
COc1ccc(N2CCN(CC(=O)Nc3ccc(C(=O)C=Cc4ccc(C)cc4)cc3)CC2)cc1	HCT-116, PC-3, MCF7, MDA-MB-231 average	MTT			64 µM
COc1cc([C@@H]2c3cc4c(cc3[C@@H](O[C@@H]3O[C@@H]5CO[C@@H](C)O[C@H]5[C@H](O)[C@H]3O)[C@H]3COC(=O)[C@H]23)OCO4)cc(OC)c1O	human iPSC-derived sensory neurons	neurite total length, high-content imaging	48 h		0.019 µM
COc1cccc2c1C(=O)c1c(O)c3c(c(O)c1C2=O)C[C@@](O)(C(C)=O)C[C@@H]3O[C@H]1C[C@H](N)[C@H](O)[C@H](C)O1	GES1	cell growth or viability, SRB	72 h		353 µM
COc1cc(-c2nc3ccc(C(=O)Nc4ccccc4F)cc3[nH]2)cc(OC)c1OC	MRC5	cell growth or viability, MTT	72 h		10.6 µM
O=S1(=O)N=C(NCCCc2ccccc2)Nc2ccc(Br)cc21	MDA-MB-468	cell growth or viability, MTS	72 h		9.27 µM
Cc1cn([C@H]2C[C@H](N=[N+]=[N-])[C@@H](CO)O2)c(=O)[nH]c1=O	human monocyte-derived macrophages	cytotoxicity, MTT	48 h, 4 h pretreatment		500 µg/mL
Cn1nnc2c(C(N)=O)ncn2c1=O	UACC-903	cell proliferation, MTS	72 h, together with: 10 µM HNL		126 µM
COc1ccc(C=CC(=O)c2ccc(NC(=O)CN3CCN(c4ccc(Cl)cc4)CC3)cc2)cc1	HCT-116, PC-3, MCF7, MDA-MB-231 average	MTT			44 µM
C[C@]1([N+](=O)[O-])C(=O)c2cccc(F)c2O[C@@H]1CC(=O)NC12CC3CC(CC(C3)C1)C2	DU-145	cell growth or viability, SRB	96 h		2.35 µM
S=C([S][Au-][P+](CCCCCC[P+]([Au-][S]C(=S)n1ncc2ccccc21)(c1ccccc1)c1ccccc1)(c1ccccc1)c1ccccc1)n1ncc2ccccc21	PHA-P stimulated human PBMC	cell growth, MTT	3 d		30.2 ± 11.1 µM
COc1ccc(N2CCN(CC(=O)Nc3ccc(C4=NN(C(C)=O)C(c5ccc(Br)cc5)C4)cc3)CC2)cc1 (centres unmarked)	HCT-116, PC-3, MCF7, MDA-MB-231 average	MTT			23 µM
CC1(C)C2CC[C@]1(C)C(=O)/C2=C/c1cc2ccccc2o1	GES1	cell growth or viability, SRB	72 h		223 µM
C#CCOC(=O)C[C@H]1Oc2ccccc2C(=O)[C@]1(C)[N+](=O)[O-]	DU-145	cell growth or viability, SRB	96 h		> 50 µM
CC(C)=CCC1=C(O)C(=O)c2ccccc2C1=O	A2780	cytotoxicity, MTT	72 h		~6 µM

Some of these lines once more:
SMILES	cell line	assay	conditions	scale	IC50
C[C@]1([N+](=O)[O-])C(=O)c2ccccc2O[C@@H]1CC(=O)NC1CCCCC1	DU-145	cell growth or viability, SRB	96 h		5.09 µM
COc1ccc(C=CC(=O)c2ccc(NC(=O)CN3CCN(c4ccc(Cl)cc4)CC3)cc2)cc1	HCT-116, PC-3, MCF7, MDA-MB-231 average	MTT			44 µM
O=C1c2ccccc2-c2nc3nnnn3nc21	HeLa expressing Ub(G76V)-GFP	Ub(G76V)-GFP degradation, inhibitor, cycloheximide chase			0.52 ± 0.12 µM
Cc1cc(=O)oc2c(C)c(O)ccc12	PAM212	cell growth	4 to 5 days, together with: UVA 1.28 J/cm^2		100 µM
COc1ccc(N2CCN(CC(=O)Nc3ccc(C4=NN(C(C)=O)C(c5ccc(C)cc5)C4)cc3)CC2)cc1 (centres unmarked)	HCT-116, PC-3, MCF7, MDA-MB-231 average	MTT			18 µM
CC1(C)C2CC[C@]1(C)C(=O)/C2=C/c1cc2ccccc2o1	GES1	cell growth or viability, SRB	72 h		223 µM
C[C@]1([N+](=O)[O-])C(=O)c2cccc(F)c2O[C@@H]1CC(=O)NC12CC3CC(CC(C3)C1)C2	DU-145	cell growth or viability, SRB	96 h		2.35 µM
